Experimental data from different studies.
Each line is one published result; not all experiments were run side by side. Values joined by “and” are separate records of one study, mostly repeats; a detail may differ. ± gives the spread as reported.
ULK1: Serine/threonine-protein kinase ULK1 (ULK1, Homo sapiens, UniProt O75385)
Chain of UniProt O75385 (whole entry, looked up): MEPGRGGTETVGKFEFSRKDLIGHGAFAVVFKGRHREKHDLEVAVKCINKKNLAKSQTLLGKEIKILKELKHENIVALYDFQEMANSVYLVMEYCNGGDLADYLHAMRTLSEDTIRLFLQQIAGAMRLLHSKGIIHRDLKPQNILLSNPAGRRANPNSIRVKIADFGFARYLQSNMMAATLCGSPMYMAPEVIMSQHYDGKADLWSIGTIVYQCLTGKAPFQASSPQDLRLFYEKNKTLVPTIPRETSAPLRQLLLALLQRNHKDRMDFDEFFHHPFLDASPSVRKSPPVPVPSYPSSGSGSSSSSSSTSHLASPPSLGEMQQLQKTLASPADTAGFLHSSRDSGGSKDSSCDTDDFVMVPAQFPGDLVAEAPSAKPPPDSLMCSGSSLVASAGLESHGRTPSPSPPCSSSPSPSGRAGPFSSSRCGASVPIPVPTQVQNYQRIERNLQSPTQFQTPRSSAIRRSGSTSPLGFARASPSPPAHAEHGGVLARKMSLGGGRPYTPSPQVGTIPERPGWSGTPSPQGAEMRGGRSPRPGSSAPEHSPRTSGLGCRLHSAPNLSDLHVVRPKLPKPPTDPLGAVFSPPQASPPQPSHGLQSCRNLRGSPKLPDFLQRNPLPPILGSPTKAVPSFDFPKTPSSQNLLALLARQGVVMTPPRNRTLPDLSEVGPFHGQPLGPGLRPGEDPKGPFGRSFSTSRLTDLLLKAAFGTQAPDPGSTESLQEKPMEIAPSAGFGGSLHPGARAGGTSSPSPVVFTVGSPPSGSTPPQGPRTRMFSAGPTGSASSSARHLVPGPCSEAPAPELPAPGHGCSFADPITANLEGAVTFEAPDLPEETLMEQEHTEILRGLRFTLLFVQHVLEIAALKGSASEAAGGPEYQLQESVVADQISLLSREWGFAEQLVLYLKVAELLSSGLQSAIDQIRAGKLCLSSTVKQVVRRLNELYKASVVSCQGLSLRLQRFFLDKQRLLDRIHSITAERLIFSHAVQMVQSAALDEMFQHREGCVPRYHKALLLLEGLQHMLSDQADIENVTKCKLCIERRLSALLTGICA
MAPK1: Mitogen-activated protein kinase 1 (MAPK1, Homo sapiens, UniProt P28482)
EDNRA: Endothelin-1 receptor (EDNRA, Homo sapiens, UniProt P25101)
Chain of UniProt P16675 (whole entry, looked up): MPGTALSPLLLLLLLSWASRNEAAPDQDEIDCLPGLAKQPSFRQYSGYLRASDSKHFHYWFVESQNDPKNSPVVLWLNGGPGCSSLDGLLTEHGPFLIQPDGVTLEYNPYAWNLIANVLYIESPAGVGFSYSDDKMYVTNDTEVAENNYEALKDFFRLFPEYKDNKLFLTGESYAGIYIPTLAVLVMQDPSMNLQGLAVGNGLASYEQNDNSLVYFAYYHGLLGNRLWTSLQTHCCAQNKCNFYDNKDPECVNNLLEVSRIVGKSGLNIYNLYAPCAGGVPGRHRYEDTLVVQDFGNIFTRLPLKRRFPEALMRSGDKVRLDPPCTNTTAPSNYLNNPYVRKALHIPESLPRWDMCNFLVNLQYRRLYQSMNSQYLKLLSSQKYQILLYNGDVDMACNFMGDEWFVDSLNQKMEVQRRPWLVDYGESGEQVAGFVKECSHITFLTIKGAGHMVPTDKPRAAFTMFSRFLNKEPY
Chain of UniProt D0VWV4 (whole entry, looked up): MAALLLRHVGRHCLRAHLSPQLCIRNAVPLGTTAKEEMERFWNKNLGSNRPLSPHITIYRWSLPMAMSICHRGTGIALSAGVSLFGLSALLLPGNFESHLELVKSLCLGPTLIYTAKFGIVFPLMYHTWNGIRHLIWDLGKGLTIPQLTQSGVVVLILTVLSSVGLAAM
Chain of UniProt Q9UM07 (whole entry, looked up): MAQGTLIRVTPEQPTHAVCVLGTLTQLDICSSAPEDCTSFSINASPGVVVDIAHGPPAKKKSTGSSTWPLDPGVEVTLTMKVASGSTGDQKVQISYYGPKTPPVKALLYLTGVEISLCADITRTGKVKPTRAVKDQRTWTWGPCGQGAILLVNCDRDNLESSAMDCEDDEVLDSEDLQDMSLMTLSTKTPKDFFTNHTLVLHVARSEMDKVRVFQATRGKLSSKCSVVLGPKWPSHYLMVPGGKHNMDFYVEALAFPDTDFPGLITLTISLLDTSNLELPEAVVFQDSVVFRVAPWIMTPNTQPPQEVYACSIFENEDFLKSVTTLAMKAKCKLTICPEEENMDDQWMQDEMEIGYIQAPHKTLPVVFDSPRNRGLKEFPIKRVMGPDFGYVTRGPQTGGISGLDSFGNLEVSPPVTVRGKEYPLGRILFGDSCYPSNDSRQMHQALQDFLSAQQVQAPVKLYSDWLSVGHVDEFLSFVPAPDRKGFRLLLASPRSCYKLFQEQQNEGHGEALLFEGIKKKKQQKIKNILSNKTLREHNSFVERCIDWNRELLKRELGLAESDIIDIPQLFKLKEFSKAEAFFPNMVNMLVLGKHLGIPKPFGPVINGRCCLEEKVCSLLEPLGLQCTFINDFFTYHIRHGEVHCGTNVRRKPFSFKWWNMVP
Chain of UniProt Q007T0 (whole entry, looked up): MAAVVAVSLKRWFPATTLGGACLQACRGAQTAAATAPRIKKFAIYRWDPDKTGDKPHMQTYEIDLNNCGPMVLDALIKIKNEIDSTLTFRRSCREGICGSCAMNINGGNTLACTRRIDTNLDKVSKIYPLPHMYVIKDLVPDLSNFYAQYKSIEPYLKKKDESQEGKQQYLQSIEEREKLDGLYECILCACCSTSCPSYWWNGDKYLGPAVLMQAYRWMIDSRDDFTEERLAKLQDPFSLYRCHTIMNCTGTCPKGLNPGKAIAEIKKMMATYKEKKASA
Chain of UniProt A5GZW8 (whole entry, looked up): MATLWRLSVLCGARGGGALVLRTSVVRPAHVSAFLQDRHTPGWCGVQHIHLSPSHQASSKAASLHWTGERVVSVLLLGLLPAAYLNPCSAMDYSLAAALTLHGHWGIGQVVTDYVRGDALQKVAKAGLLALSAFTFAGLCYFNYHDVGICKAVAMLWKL
Chain of UniProt Q6DWJ6 (whole entry, looked up): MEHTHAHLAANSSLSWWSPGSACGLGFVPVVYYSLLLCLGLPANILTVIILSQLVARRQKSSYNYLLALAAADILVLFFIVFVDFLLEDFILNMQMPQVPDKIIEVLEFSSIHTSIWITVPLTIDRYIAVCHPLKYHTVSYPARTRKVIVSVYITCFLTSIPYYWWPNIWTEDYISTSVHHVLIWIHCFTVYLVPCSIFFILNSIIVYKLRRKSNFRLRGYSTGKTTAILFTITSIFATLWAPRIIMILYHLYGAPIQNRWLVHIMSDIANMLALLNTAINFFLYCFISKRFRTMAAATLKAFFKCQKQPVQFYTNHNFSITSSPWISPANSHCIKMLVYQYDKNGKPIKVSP
Chain of UniProt P08069 (whole entry, looked up): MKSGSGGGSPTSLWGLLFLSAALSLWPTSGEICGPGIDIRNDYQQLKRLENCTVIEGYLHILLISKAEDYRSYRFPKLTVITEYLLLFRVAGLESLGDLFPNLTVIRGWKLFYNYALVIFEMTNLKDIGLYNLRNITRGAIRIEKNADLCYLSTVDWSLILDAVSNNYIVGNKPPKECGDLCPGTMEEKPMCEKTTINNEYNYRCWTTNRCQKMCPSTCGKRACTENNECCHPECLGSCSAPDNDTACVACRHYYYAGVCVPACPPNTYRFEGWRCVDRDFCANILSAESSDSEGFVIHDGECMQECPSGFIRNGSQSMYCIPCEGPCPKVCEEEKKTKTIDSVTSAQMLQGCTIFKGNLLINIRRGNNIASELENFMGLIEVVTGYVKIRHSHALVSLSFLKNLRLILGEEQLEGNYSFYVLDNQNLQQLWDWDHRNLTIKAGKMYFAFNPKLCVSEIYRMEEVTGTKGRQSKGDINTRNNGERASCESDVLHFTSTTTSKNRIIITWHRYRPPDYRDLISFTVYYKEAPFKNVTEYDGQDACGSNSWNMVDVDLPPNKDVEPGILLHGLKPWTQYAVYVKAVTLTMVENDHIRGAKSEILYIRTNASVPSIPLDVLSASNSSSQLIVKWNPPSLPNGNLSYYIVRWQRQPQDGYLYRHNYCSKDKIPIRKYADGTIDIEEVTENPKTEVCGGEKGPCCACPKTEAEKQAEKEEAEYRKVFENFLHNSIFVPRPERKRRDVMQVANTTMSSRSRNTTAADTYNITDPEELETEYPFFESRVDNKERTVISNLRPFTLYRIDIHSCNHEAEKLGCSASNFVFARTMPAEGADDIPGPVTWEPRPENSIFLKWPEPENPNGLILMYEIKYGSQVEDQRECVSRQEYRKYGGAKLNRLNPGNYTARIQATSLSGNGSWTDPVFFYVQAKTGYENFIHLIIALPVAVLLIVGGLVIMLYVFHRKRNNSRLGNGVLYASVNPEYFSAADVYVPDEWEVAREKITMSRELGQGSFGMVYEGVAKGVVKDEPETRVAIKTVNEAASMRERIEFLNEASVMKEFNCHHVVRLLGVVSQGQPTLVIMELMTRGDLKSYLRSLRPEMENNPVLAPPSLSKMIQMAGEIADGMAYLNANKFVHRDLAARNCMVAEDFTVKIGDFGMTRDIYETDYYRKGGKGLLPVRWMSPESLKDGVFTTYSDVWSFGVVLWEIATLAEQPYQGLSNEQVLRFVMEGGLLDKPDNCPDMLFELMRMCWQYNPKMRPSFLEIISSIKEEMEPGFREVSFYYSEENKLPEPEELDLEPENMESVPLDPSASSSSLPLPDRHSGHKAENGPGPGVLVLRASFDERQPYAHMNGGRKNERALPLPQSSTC
Chain of UniProt P07711 (whole entry, looked up): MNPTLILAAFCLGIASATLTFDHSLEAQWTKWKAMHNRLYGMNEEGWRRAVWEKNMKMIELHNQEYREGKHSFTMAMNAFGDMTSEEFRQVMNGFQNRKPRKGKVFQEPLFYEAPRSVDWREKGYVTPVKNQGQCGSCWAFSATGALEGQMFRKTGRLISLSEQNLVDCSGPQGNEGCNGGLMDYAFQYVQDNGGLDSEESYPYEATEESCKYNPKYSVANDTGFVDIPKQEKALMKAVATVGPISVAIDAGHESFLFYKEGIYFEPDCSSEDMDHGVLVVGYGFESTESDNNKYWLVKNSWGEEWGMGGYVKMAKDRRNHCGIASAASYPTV

SMILES = CCN(N=Cc1cnc2ccc(Br)cn12)S(=O)(=O)c1cc([N+](=O)[O-])ccc1C; target or system = PIK3CA (Homo sapiens, UniProt P42336, S773D); test = luminescence; scale = relative to: mutant over wild type; measurement = IC50 fold change; value = 2
SMILES = O=C(Cc1ccc(Cl)cc1)N1CCN(CC(OCc2ccc3ccccc3c2)c2ccc(Cl)cc2Cl)CC1 (stereo not shown); target or system = ULK1; test = enzyme activity, inhibitor, ADP detection; setting = 0.1 µM; measurement = activity vs control; value = 160%
SMILES = NCC(=O)N[C@H](Cc1ccccc1)C(=O)N[C@@H](Cc1ccccc1)C(=O)N[C@@H](CCC(=O)O)C(=O)O; target or system = uncharacterized protein (Aplysia californica, UniProt A0ABM0K1K5); test = IP1 accumulation; test system = CHO-K1 transfected; measurement = fold loss of potency; value = > 60 fold
SMILES = O=C1NC2(CC2)COc2ncc(F)cc2[C@H]2COCCN2c2ccn3ncc1c3n2; test system = Sprague-Dawley rat, female, uterus; setting = oral, 5 mg/kg/day, 4 weeks dosing, end of recovery; measurement = organ-to-brain weight ratio; value = 38.7 ± 12.5%
SMILES = CC(C)CC(C(=O)N1CC2(CC1C#N)C(=O)Nc1ccccc12)N(C)C(=O)c1cc2c(F)cc(F)c(F)c2[nH]1 (stereo not shown); target or system = Human coronavirus 229E; test = cytopathic effect; test system = MRC5; setting = 11.94 nM; measurement = inhibition; value = 99.7%
SMILES = CS(C)(=O)=Nc1ccc(-c2ccc(-c3nc4cc(O[C@@H]5CO[C@H]6[C@@H]5OC[C@H]6O)[nH]c4cc3F)cc2)cc1; target or system = MST1R (Homo sapiens, UniProt Q04912); test = enzyme activity, inhibitor; setting = 10 µM; measurement = inhibition; value = 11%
SMILES = COc1ccccc1-c1n[nH]c2nc(N[C@H]3CC[C@H](NS(=O)(=O)CC(C)C)CC3)ncc12; test = bead binding, competition bead pull-down, measured: LINJ.27.2570; test system = Leishmania donovani extract; setting = 10 µM; scale = relative to: vehicle; measurement = relative abundance; value = 0.0332
SMILES = O=C(N[C@@H]1c2ccccc2C[C@H]1N1CCCC1)c1ccc(-c2ccnc3[nH]ccc23)nc1; target or system = HASPIN (Homo sapiens, UniProt Q8TF76); test = binding, competition with immobilised ligand; setting = 3 µM; measurement = remaining binding; value = 0.3%
SMILES = CN(C)[C@H]1C[C@@]23CC[C@@]4(O2)C(=CC[C@]2(C)[C@@H](c5ccc6ccncc6c5)CC[C@H]24)C=C3[C@@H](O)[C@@H]1O; target or system = MAPK1; test = ATP probe labelling, inhibitor, KiNativ profiling; setting = 0.1 µM; measurement = inhibition; value = 8.6%
SMILES = CC[C@H](C)[C@@H]([C@@H](CC(=O)N1CCC[C@H]1[C@H](OC)[C@@H](C)C(=O)N[C@H](C)[C@@H](O)c1ccccc1)OC)N(C)C(=O)[C@@H](NC(=O)[C@H](C(C)C)N(C)C(=O)OCc1ccc(NC(=O)[C@H](CCCNC(N)=O)NC(=O)[C@@H](NC(=O)CCCCCN2C(=O)CC(SC[C@H](NC(=O)[C@H](CC(=O)O)NC(=O)[C@H](Cc3ccc(O)cc3)NC(=O)[C@H](Cc3c[nH]c4ccccc34)NC(=O)[C@@H](N)CCCNC(=N)N)C(=O)O)C2=O)C(C)C)cc1)C(C)C (stereo partly shown); test system = C57BL/6 mouse, healthy, lung; setting = intraperitoneal, 2.5 mg/kg, 1 h; measurement = concentration; value = not detected
SMILES = O=C(O)c1ccc(-c2nc(-c3ccccc3Cl)c3sccn23)cc1; target or system = Grin1 (Rattus norvegicus, UniProt P35439); test = radioligand binding, safety screen panel; setting = 10 µM; scale = relative to: control; measurement = specific binding; value = 93.3% and 96.8%
SMILES = C[C@H](NCc1ccc(-c2ccc(C(F)(F)F)cc2)cc1)C(N)=O; target or system = GRM5 (Homo sapiens, UniProt P41594); test = radioligand binding; setting = 1 µM, added: 0.03 µM [3H]quisqualic acid; measurement = inhibition; value = 14%
SMILES = O=C(CN1CN(c2ccccc2)C2(CCN(C(=O)c3cnc4[nH]ncc4c3)CC2)C1=O)NCC(F)(F)F; target or system = EGFR (Homo sapiens, UniProt P00533, G719C); test = inhibitor; setting = concentration not given; measurement = inhibition; value = < 50%
SMILES = [CH3][Ti+2][O]C(=O)c1ccc([S][Au][PH](c2ccccc2)(c2ccccc2)c2ccccc2)cc1.c1cc[cH-]c1.c1cc[cH-]c1; target or system = MAPK1; test = kinase activity, HotSpot radiometric; setting = 1 µM, added: ATP 10 µM; scale = relative to: vehicle; measurement = remaining activity; value = 107% and 109%
SMILES = N[C@H](C(=O)N1CCCC1)C1CCN(c2nccc3c(-c4ncc(Cl)cc4Cl)cccc23)CC1; target or system = PADI4 (Homo sapiens, UniProt Q9UM07); test = enzyme activity; setting = 0.2458 µM, added: Ca2+ 0.25 mM; measurement = kcat; value = 0.101 s⁻¹ and 0.1 s⁻¹
SMILES = CON(C(=O)c1cn(C)nc1C(F)F)C(C)Cc1c(Cl)cc(Cl)cc1Cl (stereo not shown); target or system = SDHD/SDHC/SDHB (Sus scrofa, UniProt A5GZW8+D0VWV4+Q007T0); test = enzyme activity, inhibitor, DCIP reduction; test system = pig; setting = 1 µM, added: DCIP 120 µM; measurement = reaction velocity; value = 0.00741 µM/s and 0.00685 µM/s
SMILES = N=C(N)NCCC[C@@H]1NC(=O)[C@H](CCCCNC(=O)CCC(NC(=S)Nc2ccc(CC3CN(CC(=O)O)CCN(CC(=O)O)CCN(CC(=O)O)CCN3CC(=O)O)cc2)C(=O)NCCCC[C@@H]2NC(=O)[C@@H](Cc3ccc(O)cc3)NC(=O)[C@H](CC(=O)O)NC(=O)CNC(=O)[C@H](CCCNC(=N)N)NC2=O)NC(=O)[C@@H](Cc2ccc(O)cc2)NC(=O)[C@H](CC(=O)O)NC(=O)CNC1=O (stereo partly shown) [scandium-44 labelled]; test = ex vivo γ-counting; test system = female athymic nude mice, U-87 MG xenograft, bone; setting = intravenous, 4 h, added: cRGD 50 mg/kg blocking; measurement = tissue uptake; value = 0.025 ± 0.004 %ID/g
SMILES = CC(C)[C@H]1NC(=O)C[C@H]2/C=C/CCSSC[C@@H](NC1=O)C(=O)N[C@H](Cc1cccc3ccccc13)C(=O)NCC(=O)O2; target or system = PRKD3 (Homo sapiens, UniProt O94806); test = enzyme activity, inhibitor; setting = 10 µM; measurement = inhibition; value = 8.9%
SMILES = CCCNC(=O)[C@H]1O[C@@H]1C(=O)N[C@H](C(=O)N1CCC[C@H]1C(=O)OCC1=C2C(C)=CC(C)=[N+]2[B-](C)(C)n2c(C)cc(C)c21)[C@@H](C)CC; target or system = Procathepsin L (CTSL, Homo sapiens, UniProt P07711); test = irreversible inhibitor; setting = dark; measurement = kinact/KI; value = 10 ± 3 M⁻¹ s⁻¹
SMILES = CN(C)CCCSC(=S)N1CCN(C(=O)/C=C/c2coc3ccccc3c2=O)CC1; target or system = Nucleoprotein (N, Tomato spotted wilt virus, UniProt P25999, Y184A); test = binding, microscale thermophoresis; setting = 250 µM; scale = dose series; measurement = MST response; value = 851 a.u.
SMILES = O=C1NC(=O)c2c1c1cc(F)c[n+]3c1c1c2c2cc(O)ccc2[n]1[Ru-4]312([N]=C=S)[S+]3CC[S+]1CC[S+]2CC3 (stereo not shown); target or system = IGF1R (Homo sapiens, UniProt P08069); test = enzyme activity; setting = 100 nM, human enzyme, added: 10 µM ATP; scale = relative to: untreated; measurement = remaining activity; value = 82%
SMILES = Cc1cc(Oc2nc(N3CC[C@@H](c4ccncc4)C3)ncc2F)[nH]n1; target or system = Mycobacterium tuberculosis; test = OD; test system = H37Rv PurF CRISPRi knockdown; setting = 0.000244 µM, added: anhydrotetracycline low; measurement = normalised growth; value = 78% and 81% and 83%
SMILES = CCOC(=O)[C@@H]1Cc2c(cc([N+](=O)[O-])cc2[N+](=O)[O-])[C@H](O)[C@]12C(=O)Nc1ccc(Br)cc12; target or system = ULK1; test = KINOMEscan; setting = 100 nM; scale = relative to: DMSO control; measurement = remaining binding; value = 59%
SMILES = CC(C)(C)C(=O)OCOP(=O)(OCOC(=O)C(C)(C)C)C1CCCN(O)C1=O (stereo not shown); target or system = 786-0; measurement = GI50; value = 350 nM
SMILES = CCNC(=S)NN=Cc1c2ccccc2cc2ccccc12.Cc1ccc(C(C)C)cc1.[Cl-].[Cl-].[Ru+2]; target or system = Albumin (ALB, Homo sapiens, UniProt P02768); test = binding, van't Hoff, modified Stern-Volmer; setting = concentration not given; measurement = entropy change (ΔS°); value = 255 J/mol/K
SMILES = Nc1ccc(/C=C/C(=O)N2CCc3c(oc4c(-c5ccc(F)cc5)cc(-c5ccc(C(=O)N6CCC(F)(F)CC6)cn5)cc34)C2)cn1; target or system = Tyrosine-protein kinase ABL1, phosphorylated (ABL1, Homo sapiens, UniProt P00519); test = binding, competition with immobilised ligand; setting = 1 µM; measurement = remaining binding; value = 99%
SMILES = Cc1cc(-c2ccc3ccccc3c2)nnc1NCCN1CCN(C)CC1; target or system = EDNRA; test = antagonist; setting = concentration not given; measurement = antagonist activity; value = negative
SMILES = CC(C)CC(O)(CC(C)C)c1cn(C(=O)N2CCCC2)nn1; target or system = Lysosomal protective protein (Ctsa, Mus musculus, UniProt P16675); test = probe labelling, inhibitor, competitive ABPP-SILAC, measured: Ctsa; test system = mouse T cells; setting = concentration not given, 4 h, in situ, single peptide; scale = relative to: treated over DMSO, lower = more inhibition; measurement = SILAC ratio; value = 1.24 and 1.34 and 1.03 and 1.32
SMILES = C#CCCCCOc1ccc2c(c1)CCCN2C(=O)CCl; target or system = Cytoskeleton-associated protein 4 (Homo sapiens, UniProt Q07065); test = mass spectrometry profiling; test system = Ramos cell lysate; setting = 100 µM over 10 µM, UniProt Q07065; scale = relative to: high over low concentration; measurement = reactivity ratio; value = 0.959
SMILES = CC[C@H](C)[C@H](NC(=O)[C@H](CO)NC(=O)[C@H](Cc1ccc(O)cc1)NC(=O)[C@H](Cc1ccc(O)cc1)NC(=O)[C@H](CC(N)=O)NC(=O)CNC(=O)[C@H](CO)NC(=O)[C@H](Cc1ccc(O)cc1)NC(=O)[C@H](CO)NC(=O)[C@H](CO)NC(=O)[C@H](CC(N)=O)NC(=O)COCCOCCNC(=O)CN1CCN(CC(=O)O)CCN(CC(=O)O)CCN(CC(=O)O)CC1)C(=O)N[C@@H](CC(C)C)C(N)=O [copper-64 labelled]; test = dynamic PET; test system = tamoxifen-induced PDAC mouse model, pancreas; setting = 12.5 min, CLDN4-expressing tumours; measurement = maximum pancreas uptake; value = 17.6 %IA/cc
SMILES = COc1ccccc1-c1n[nH]c2nc(NC3CCN(C(=O)Cc4ccc(F)cc4F)CC3)ncc12; test = bead binding, competition bead pull-down, measured: LINJ.29.0860; test system = Leishmania donovani axenic amastigote extract; setting = 10 µM; scale = relative to: vehicle; measurement = relative abundance; value = 0.97
SMILES = CC(=O)N[C@@H](CC(C)C)C(=O)N[C@H](C(=O)N[C@@H](Cc1ccccc1)C(=O)N[C@]1(C)CCCCCC/C=C/CCC[C@@](C)(C(=O)N[C@@H](C)C(=O)N[C@@H](C)C(=O)N[C@@H](C)C(=O)N[C@@H](C)C(=O)N[C@@H](C)C(=O)N[C@H](C)C(N)=O)NC(=O)[C@H](CC(C)C)NC(=O)[C@H](CCCCNC(=O)CCNC(=O)C[C@@H]2N=C(c3ccc(Cl)cc3)c3c(sc(C)c3C)-n3c(C)nnc32)NC(=O)[C@H](C)NC(=O)[C@H](Cc2c[nH]c3ccccc23)NC(=O)[C@H](Cc2ccc(O)cc2)NC(=O)[C@H](C)NC1=O)[C@@H](C)O; test system = C57BL/6 mice, blood; setting = intravenous, 3 mg/kg twice weekly, 2 weeks; scale = relative to: leukocytes; measurement = neutrophils; value = 13%
SMILES = CCN(CC)CCOc1ccc(-c2nnn(Cc3ccc(OC)cc3)c2N)cc1; target or system = EDNRA; test = calcium flux, FLIPR; test system = HEK293; setting = 12000 nM; measurement = activation; value = 0.28%
SMILES = O=C(N1CCCCC1)n1ccnn1; target or system = Alpha/beta hydrolase domain-containing protein 17B (Abhd17b, Mus musculus, UniProt Q7M759); test = probe labelling, inhibitor, competitive ABPP-SILAC, measured: Fam108b1; test system = mouse T cells; setting = concentration not given, 4 h, protein level; scale = relative to: treated over DMSO cells, lower = stronger inhibition; measurement = SILAC activity ratio; value = 1.16
SMILES = CC1CN1c1cc(O)c2nc(N)sc2c1 (stereo not shown); target or system = thioredoxin; test = mass spectrometry; setting = 50 µM, 4 h, 37 °C, added: thioredoxin 2 µM; measurement = covalent adduct formation; value = < 10%
SMILES = CC[C@H](C)[C@H](NC(=O)[C@H](CCCNC(=N)N)NC(=O)[C@H](CCCNC(=N)N)NC(=O)[C@H](CC(C)C)NC(=O)[C@H](Cc1ccccc1)NC(=O)CNC(=O)CNC(=O)[C@@H](N)Cc1ccc(O)cc1)C(=O)N[C@@H](CCCNC(=N)N)C(=O)N1CCC[C@H]1C(=O)N[C@@H](CCCCN)C(=O)N[C@@H](CC(C)C)C(=O)N[C@@H](CCCCN)C(=O)O; target or system = GPR139 (Homo sapiens, UniProt Q6DWJ6); test = GoA activation, agonist, BRET; setting = 40 µM; measurement = maximal G protein activation; value = 100%
SMILES = Cc1sc2c(c1C)C(c1ccc(Cl)cc1)=NC(CC(=O)OC(C)(C)C)c1nnc(C)n1-2 (stereo not shown); target or system = BDKRB2 (Homo sapiens, UniProt P30411); test = ligand displacement, radioligand; setting = 1 µM; measurement = inhibition; value = -3%
